Measurements from different studies.

Compound | organism | test | test system | conditions | how to read | endpoint | result
CCn1c(-c2ccc(OC)cc2)c(-c2ccc(OC)cc2)n(CC)c1=[Se+][Au-][P+](CC)(CC)CC.[Cl-] | Acinetobacter baumannii | bacterial growth, checkerboard microdilution | carbapenem-resistant | together with: imipenem | – | FIC index | 0.5
O=S(=O)(CCC(F)(F)F)N[C@H]1CC[C@H](Nc2ncc3c(-c4ccccn4)n[nH]c3n2)CC1 | Leishmania donovani | – | LdBOB drug-selected resistant clones | promastigotes | relative to: wild type | resistance fold | > 500 fold
CCCCCCC(CC=CCCCCCCCC(=O)OCCOCn1cnc2c(=O)[nH]c(N)nc21)OC(=O)CCCCC1SCC2NC(=O)NC21 (stereo not shown) | Epstein-Barr virus | viral DNA accumulation, DNA hybridization | Akata | 72 h | – | EC90 | 41.5 µM
CC(=O)Oc1ccc(Cn2cc(F)c(=O)[nH]c2=O)cc1C1OC(c2ccccc2)=NN1C(C)=O (stereo not shown) | varicella-zoster virus | plaque formation, plaque reduction | HEL fibroblasts, TK+ strain OKA | – | – | EC50 | > 100 µM
Oc1ccc(C(F)(F)F)cc1-c1nc2c(Cl)cc(Cl)cc2[nH]1 | Acinetobacter baumannii | colistin potentiator | AB 2A8, colistin-resistant | 5 µM | – | colistin MIC | 0.125 µg/mL
CCCN1CCNC1=[S+][Ag-3]([O][N+](=O)[O-])([P+](c1ccccc1)(c1ccccc1)c1ccccc1)[P+](c1ccccc1)(c1ccccc1)c1ccccc1 | Staphylococcus epidermidis | – | MTCC 435, DMSO | 0.1 mL of 50 mg/mL in 8 mm well, 18 to 24 h | – | inhibition zone diameter | 24 mm
C[N+]1=C2C(c3ccccc3)=[N+]([O-])c3ccccc3N2CCC1 | Bacteroides fragilis | microbial growth | ATCC25285 | – | – | MIC | 4 µg/mL
[Cl-].[Cl-].[Mn+2].c1ccc(CN2CCCNCCN(Cc3ccccc3)CCCNCC2)cc1 | Leishmania donovani | parasite growth, resazurin | – | 72 h, amastigote | – | IC50 | > 19 µM
COc1ccc(-c2oc3ccc(-c4cc(OC)c(OC)c(OC)c4)cc3c2C#CC2(O)CCCCC2)cc1 | hepatitis C virus | viral entry, HCV pseudoparticle entry | genotype 1a | 10 µM | relative to: DMSO | remaining activity | 69.3%
CC(=O)[O-].CN(C)C=O.F[P-](F)(F)(F)(F)F.[Co+2].c1ccc(CN2CCN3CCCN(CC2)CCN(Cc2ccccc2)CC3)cc1 | Leishmania donovani | parasite growth, resazurin | – | 72 h, promastigote | – | IC90 | > 20 µM
CC[C@H](C)[C@H](NC(=O)[C@H](CCCCN)NC(=O)[C@H](CCCCN)NC(=O)[C@H](CC(C)C)NC(=O)[C@H](CCCCN)NC(=O)[C@H](CCC(=O)O)NC(=O)[C@H](CCCCN)NC(=O)[C@@H](NC(=O)[C@H](CCCCN)NC(=O)[C@H](CC(N)=O)NC(=O)[C@H](CCCNC(=N)N)NC(=O)[C@H](Cc1ccccc1)NC(=O)[C@H](CCCCN)NC(=O)[C@H](CCCNC(=N)N)NC(=O)[C@H](CC(C)C)NC(=O)[C@H](CCCNC(=N)N)NC(=O)[C@H](CCCCN)NC(=O)[C@H](CCCNC(=N)N)NC(=O)[C@H](CC(C)C)NC(=O)CN)[C@@H](C)CC)C(=O)NCC(=O)N[C@@H](CCC(N)=O)C(=O)N[C@@H](CCCCN)C(=O)N[C@H](C(=O)N[C@@H](CCC(N)=O)C(=O)NCC(=O)N[C@@H](Cc1ccccc1)C(=O)N[C@H](C(=O)N1CCC[C@H]1C(=O)N[C@@H](CCCCN)C(=O)N[C@@H](CC(C)C)C(=O)N[C@@H](C)C(=O)N1CCC[C@H]1C(=O)N[C@@H](CCCNC(=N)N)C(=O)N[C@H](C(=O)N[C@@H](CC(=O)O)C(=O)N[C@@H](Cc1ccc(O)cc1)C(=O)O)[C@@H](C)O)C(C)C)[C@@H](C)CC | Staphylococcus epidermidis | inhibition zone | penicillin-resistant P1389 | – | – | lethal concentration | 1 µM
[Cl-].[Cl-].[Ni+2].c1ccc(CN2CCNCCN(Cc3ccccc3)CCNCC2)cc1 | Leishmania donovani | parasite growth | THP-1 macrophages | intracellular amastigotes | – | IC90 | > 20 µM
Nc1ccn(C[C@@H](CO)OCP(=O)(O)OCCCS(=O)(=O)CCCCCCCCCCCCCC2CCC2)c(=O)n1 | human alphaherpesvirus 2 | – | HFF, G | – | relative to: CC50 over EC50 | selectivity index | > 14

For quick reference, copied from above:
Compound | organism | test | test system | conditions | how to read | endpoint | result
COc1ccc(-c2oc3ccc(-c4cc(OC)c(OC)c(OC)c4)cc3c2C#CC2(O)CCCCC2)cc1 | hepatitis C virus | viral entry, HCV pseudoparticle entry | genotype 1a | 10 µM | relative to: DMSO | remaining activity | 69.3%
[Cl-].[Cl-].[Mn+2].c1ccc(CN2CCCNCCN(Cc3ccccc3)CCCNCC2)cc1 | Leishmania donovani | parasite growth, resazurin | – | 72 h, amastigote | – | IC50 | > 19 µM
